Experimental data pooled from the literature.
Each line is one published result; not all experiments were run side by side. Several values in a cell are separate wells, animals, samples, runs or records. ± gives the spread as reported.
Genome polyprotein NS3 helicase domain: Genome polyprotein, NS3 helicase domain (Hepatitis C virus genotype 1b, UniProt Q9WMX2)
ESR1: Estrogen receptor (ESR1, Homo sapiens, UniProt P03372)
Chain of UniProt P03372 (whole entry, looked up): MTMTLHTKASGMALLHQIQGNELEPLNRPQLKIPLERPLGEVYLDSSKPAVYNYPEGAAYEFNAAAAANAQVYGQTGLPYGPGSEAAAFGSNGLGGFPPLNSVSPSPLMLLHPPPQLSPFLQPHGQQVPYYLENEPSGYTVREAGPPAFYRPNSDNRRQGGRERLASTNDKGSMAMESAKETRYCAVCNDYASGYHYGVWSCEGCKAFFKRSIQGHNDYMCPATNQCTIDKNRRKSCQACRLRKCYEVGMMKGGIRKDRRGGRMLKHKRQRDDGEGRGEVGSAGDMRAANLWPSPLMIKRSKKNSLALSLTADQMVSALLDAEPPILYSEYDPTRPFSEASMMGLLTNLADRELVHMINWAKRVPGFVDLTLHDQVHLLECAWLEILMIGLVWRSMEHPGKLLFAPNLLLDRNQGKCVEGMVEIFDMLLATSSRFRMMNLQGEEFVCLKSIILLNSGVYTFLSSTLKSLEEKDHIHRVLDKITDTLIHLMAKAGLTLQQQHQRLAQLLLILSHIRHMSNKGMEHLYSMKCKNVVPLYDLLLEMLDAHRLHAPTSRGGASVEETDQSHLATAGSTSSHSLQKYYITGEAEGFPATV
WD repeat-containing protein 91 WD40 domain, residues 392–747: WD repeat-containing protein 91, WD40 domain, residues 392–747 (Homo sapiens, UniProt A4D1P6)
Chain of UniProt A4D1P6 (whole entry, looked up): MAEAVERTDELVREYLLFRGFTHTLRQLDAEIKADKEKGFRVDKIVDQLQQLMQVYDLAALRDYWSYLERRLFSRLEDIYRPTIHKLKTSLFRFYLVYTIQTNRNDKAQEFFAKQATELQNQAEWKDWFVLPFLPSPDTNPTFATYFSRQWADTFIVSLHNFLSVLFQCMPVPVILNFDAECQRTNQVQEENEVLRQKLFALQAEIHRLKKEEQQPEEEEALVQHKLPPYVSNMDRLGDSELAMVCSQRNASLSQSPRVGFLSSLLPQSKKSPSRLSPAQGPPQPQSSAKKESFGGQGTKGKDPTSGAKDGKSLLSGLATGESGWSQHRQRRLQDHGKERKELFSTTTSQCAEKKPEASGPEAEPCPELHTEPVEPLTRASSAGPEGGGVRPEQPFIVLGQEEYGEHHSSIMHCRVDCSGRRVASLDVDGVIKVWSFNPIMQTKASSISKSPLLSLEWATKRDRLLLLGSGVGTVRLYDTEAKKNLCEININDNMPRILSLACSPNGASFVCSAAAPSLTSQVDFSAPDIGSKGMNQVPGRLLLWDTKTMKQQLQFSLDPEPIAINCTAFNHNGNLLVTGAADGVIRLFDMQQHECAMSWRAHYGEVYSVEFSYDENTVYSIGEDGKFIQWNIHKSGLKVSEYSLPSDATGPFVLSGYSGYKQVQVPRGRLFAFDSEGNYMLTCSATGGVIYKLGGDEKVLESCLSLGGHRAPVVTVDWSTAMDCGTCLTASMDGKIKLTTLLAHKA
Chain of UniProt P51575 (whole entry, unmodified, looked up): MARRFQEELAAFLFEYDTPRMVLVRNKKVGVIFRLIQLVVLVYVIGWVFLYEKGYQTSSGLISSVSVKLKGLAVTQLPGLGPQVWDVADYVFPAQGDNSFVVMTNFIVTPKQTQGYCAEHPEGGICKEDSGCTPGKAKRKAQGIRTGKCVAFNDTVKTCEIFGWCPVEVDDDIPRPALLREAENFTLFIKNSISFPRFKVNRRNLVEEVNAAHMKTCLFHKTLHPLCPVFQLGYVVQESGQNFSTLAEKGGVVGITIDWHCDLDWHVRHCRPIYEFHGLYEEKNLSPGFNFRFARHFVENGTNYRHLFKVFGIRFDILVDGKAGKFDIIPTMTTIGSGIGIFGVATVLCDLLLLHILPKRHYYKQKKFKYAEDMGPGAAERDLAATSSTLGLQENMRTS
Chain of UniProt O60318 (whole entry, looked up): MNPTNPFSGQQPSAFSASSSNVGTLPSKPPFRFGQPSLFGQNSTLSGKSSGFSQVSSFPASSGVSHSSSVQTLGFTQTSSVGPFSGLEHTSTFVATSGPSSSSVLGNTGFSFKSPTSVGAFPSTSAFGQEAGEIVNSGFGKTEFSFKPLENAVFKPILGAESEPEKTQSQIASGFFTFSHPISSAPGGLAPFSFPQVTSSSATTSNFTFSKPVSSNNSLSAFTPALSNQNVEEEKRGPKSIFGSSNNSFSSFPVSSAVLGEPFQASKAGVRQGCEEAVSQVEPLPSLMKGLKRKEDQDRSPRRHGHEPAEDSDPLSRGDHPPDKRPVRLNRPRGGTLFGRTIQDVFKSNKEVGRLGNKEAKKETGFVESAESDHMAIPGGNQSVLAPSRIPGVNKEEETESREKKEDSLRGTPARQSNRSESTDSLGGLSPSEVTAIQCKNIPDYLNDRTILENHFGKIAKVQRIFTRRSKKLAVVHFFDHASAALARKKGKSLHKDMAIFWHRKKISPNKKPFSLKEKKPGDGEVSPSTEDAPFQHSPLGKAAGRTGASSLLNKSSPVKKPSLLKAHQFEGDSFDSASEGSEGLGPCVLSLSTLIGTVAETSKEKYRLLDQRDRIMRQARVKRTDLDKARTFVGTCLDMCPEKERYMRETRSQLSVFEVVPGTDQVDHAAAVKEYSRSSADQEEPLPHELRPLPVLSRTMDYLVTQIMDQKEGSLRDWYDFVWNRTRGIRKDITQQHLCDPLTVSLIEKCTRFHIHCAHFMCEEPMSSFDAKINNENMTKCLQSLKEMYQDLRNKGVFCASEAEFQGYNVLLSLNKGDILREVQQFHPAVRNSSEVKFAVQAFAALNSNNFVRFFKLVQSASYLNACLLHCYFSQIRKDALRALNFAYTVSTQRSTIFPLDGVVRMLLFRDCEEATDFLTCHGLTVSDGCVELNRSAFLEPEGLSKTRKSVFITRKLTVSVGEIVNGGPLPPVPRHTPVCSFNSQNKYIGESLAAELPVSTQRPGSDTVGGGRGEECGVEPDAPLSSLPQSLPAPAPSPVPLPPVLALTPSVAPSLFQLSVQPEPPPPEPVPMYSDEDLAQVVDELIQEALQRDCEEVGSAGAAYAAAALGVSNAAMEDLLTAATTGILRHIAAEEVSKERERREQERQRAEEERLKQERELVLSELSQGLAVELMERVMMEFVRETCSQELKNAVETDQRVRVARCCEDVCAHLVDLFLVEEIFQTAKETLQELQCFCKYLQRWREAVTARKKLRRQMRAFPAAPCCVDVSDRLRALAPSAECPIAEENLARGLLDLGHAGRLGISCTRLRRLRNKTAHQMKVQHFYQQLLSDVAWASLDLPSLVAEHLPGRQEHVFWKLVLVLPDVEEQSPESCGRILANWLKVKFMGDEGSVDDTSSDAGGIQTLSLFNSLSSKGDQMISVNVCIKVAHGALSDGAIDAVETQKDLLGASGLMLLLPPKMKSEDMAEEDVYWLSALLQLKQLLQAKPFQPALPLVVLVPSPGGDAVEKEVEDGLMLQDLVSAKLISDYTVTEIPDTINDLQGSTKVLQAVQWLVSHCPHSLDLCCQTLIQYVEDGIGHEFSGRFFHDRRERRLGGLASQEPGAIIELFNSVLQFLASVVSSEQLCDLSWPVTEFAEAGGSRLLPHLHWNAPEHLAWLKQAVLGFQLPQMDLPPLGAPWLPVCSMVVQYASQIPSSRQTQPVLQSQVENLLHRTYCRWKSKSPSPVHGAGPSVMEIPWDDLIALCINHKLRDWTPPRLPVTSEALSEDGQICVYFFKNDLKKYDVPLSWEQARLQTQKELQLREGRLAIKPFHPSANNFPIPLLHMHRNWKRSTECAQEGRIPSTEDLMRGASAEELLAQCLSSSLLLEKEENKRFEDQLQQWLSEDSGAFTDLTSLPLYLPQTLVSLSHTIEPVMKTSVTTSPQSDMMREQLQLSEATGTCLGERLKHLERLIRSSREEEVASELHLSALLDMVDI
Chain of UniProt Q93015 (whole entry, looked up): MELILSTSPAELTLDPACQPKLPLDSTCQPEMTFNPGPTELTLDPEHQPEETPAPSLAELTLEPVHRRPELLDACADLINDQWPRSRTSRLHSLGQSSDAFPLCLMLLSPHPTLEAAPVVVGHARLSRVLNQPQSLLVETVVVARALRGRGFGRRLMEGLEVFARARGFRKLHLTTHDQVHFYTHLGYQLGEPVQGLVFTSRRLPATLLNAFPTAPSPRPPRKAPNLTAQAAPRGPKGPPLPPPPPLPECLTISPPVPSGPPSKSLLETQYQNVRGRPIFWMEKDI
Chain of UniProt C7FF04 (whole entry, looked up): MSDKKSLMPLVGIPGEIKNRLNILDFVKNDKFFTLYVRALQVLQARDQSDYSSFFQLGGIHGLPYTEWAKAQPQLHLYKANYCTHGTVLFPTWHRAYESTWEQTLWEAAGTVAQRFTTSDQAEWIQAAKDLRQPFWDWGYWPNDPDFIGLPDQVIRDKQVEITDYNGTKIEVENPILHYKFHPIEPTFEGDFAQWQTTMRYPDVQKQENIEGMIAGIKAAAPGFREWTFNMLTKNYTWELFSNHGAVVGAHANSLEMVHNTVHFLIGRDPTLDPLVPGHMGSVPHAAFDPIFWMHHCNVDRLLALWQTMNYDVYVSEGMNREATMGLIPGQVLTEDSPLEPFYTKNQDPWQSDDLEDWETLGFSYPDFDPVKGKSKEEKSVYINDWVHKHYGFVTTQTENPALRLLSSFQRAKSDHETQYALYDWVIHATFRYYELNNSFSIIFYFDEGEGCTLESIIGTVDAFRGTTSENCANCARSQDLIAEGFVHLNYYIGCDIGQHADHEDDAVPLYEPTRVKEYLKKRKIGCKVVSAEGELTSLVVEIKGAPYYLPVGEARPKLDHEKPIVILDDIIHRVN
Chain of UniProt P16442 (whole entry, unmodified, looked up): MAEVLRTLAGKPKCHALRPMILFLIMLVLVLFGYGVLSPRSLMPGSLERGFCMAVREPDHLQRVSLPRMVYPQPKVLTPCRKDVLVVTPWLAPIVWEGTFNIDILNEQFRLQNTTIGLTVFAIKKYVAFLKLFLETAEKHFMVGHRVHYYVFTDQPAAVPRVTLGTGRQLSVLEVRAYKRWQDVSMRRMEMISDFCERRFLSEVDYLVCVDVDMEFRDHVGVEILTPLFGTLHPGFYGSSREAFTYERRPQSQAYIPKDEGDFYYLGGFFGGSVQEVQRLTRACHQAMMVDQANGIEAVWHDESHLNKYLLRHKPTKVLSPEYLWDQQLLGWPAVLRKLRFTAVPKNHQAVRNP

| Compound | tested on | test | system | setting | scale | measurement | value |
| --- | --- | --- | --- | --- | --- | --- | --- |
| O=c1ccn([C@@H]2O[C@H](COP(=O)(O)OP(=O)(O)O)[C@@H](O)[C@H]2O)c(=O)[nH]1 | ABO (Homo sapiens, UniProt P16442, G235S/G268A/L266M/R176G) | ZZ-exchange NMR |  | compound-bound to free complex, added: H-disaccharide |  | exchange rate constant | 2.5 ± 0.6 s⁻¹ |
| O=c1onc2cnc3ccccc3n12 | Genome polyprotein NS3 helicase domain | DNA binding, inhibitor | hepatitis C virus | 100 µM, added: Cy5-dT15 DNA |  | inhibition | 0% |
| COc1cc2c(=O)c(-c3ccc(O)cc3)coc2cc1O | ESR1 | array formation | PRL-HeLa |  | reference: EC50 ERβ over EC50 ERα | selectivity ratio | 17.3 |
| NS(=O)(=O)Cc1noc2ccccc12 | Genome polyprotein NS3 helicase domain | DNA binding, inhibitor | hepatitis C virus | 100 µM, added: Cy5-dT15 DNA |  | inhibition | 1% |
| CC[C@H](C)[C@H](NC(=O)[C@H](CCC(=O)O)NC(=O)[C@H](CCC(=O)O)NC(=O)[C@@H]1CCCN1C(=O)[C@H](CC(=O)O)NC(=O)[C@H](C)NC(=O)[C@H](CCC(N)=O)NC(=O)[C@@H](NC(=O)[C@H](C)NC(=O)[C@@H](NC(=O)[C@H](CO)NC(=O)[C@@H](NC(=O)[C@H](CCCCN)NC(=O)[C@@H](N)Cc1ccc(O)cc1)[C@@H](C)O)C(C)C)[C@@H](C)O)C(=O)N[C@H](C(=O)N[C@H](C(=O)N[C@@H](CC(C)C)C(=O)N[C@@H](CC(=O)O)C(=O)N[C@@H](CC(=O)O)C(=O)N[C@@H](CC(=O)O)C(=O)N[C@@H](CC(=O)O)C(=O)O)C(C)C)[C@@H](C)CC | Small ubiquitin-related modifier 2 (Homo sapiens, UniProt P61956, C48A) | binding, ITC |  | pH 7.4, 298.15 K |  | ΔG | -8.16 ± 0.06 kcal/mol |
| COc1cc(/C=C/c2ccc(O)cc2)cc(OC)c1 | O-methyltransferase (Sorghum bicolor, UniProt A0A1B6PFV1) | ITC |  | one set of sites, added: SFG |  | -T∆S | 0.41 kcal/mol |
| CCOc1ccc(NC(=O)O[C@@H](Cn2nc(C(C)C)cc2C(C)C)C(C)C)cc1 | Neuronal acetylcholine receptor; alpha4/beta2 (Homo sapiens, UniProt P17787+P43681) | two-electrode voltage clamp | Xenopus oocytes | 1 µM, low-sensitivity stoichiometry |  | increase in ACh efficacy | ~5 fold |
| CC(C)(C)OC(=O)N1CCCC(c2ccc(C(=O)N3CCC(C#N)CC3)cc2)C1 (stereo not drawn) | WD repeat-containing protein 91 WD40 domain, residues 392–747 | binding, SPR single-concentration screen |  | 45 µM |  | SPR response | 4.5 RU and -3.8 RU |
| CC[C@H](C)[C@H](NC(=O)[C@H](CCCCN)NC(=O)CNC(=O)[C@@H](NC(=O)[C@@H](NC(=O)[C@H](CCSC)NC(=O)[C@H](Cc1c[nH]cn1)NC(=O)CN)[C@@H](C)O)C(C)C)C(=O)N[C@@H](Cc1ccc(O)cc1)C(=O)N[C@@H](C)C(=O)N[C@@H](C)C(=O)N[C@@H](CCSC)C(=O)N[C@@H](CCSC)C(=O)N[C@H](C(=O)N[C@@H](CCSC)C(=O)N[C@@H](CCC(=O)O)C(=O)N[C@@H](Cc1ccc(O)cc1)C(=O)N[C@@H](Cc1ccc(O)cc1)C(=O)N[C@@H](CCCNC(=N)N)C(=O)N[C@@H](CCC(N)=O)C(=O)N[C@@H](CO)C(=O)N[C@@H](CCCCN)C(=O)N[C@@H](C)C(=O)N[C@@H](CCCCN)C(=O)N[C@@H](CCCCN)C(=O)N[C@@H](CC(C)C)C(=O)N[C@@H](CCC(N)=O)C(=O)N[C@@H](C)C(=O)N[C@@H](CCSC)C(=O)N[C@@H](CCCNC(=N)N)C(=O)O)[C@@H](C)CC | Calmodulin-1, Ca2+-bound N-lobe (CALM1, Homo sapiens, UniProt P0DP23) | binding, isothermal titration calorimetry |  | pH 7.4, 15 °C, N-lobe, CaV2.1 IQ domain, added: Ca2+ |  | ΔH | -5.41 ± 0.21 kcal/mol |
| CCC1(O)CCCN(C(=O)c2ccc(-c3ccc(F)c(NC(=O)CCl)c3)cc2)C1 (stereo not drawn) | DNA dC->dU-editing enzyme APOBEC-3B, C-terminal domain (Homo sapiens, UniProt Q9UH17) | covalent modifier, intact protein mass spectrometry, refers to: adduct +26487 Da |  | 250 µM, 3 h, 10-fold molar excess |  | protein adduct | 0% |
| COc1cc(/C=C2\CCC/C(=C\c3ccc(O)c(OC)c3)C2=O)ccc1O | haemin | binding, isothermal titration calorimetry |  | pH 7.4, 37 °C |  | ΔG | -9.003 ± 0.0741 kcal/mol |
| CC(=O)N[C@H](C(=O)N[C@@H](CC(N)=O)C(=O)N[C@@H](CCCCN)C(=O)N1CCC[C@H]1C(=O)N[C@@H](CC(C)C)C(=O)N1CCC[C@H]1C(=O)N1CCC[C@H]1C(=O)N[C@@H](CC(C)C)C(=O)N1CCC[C@H]1C(=O)N[C@H](C(=O)N[C@@H](C)C(N)=O)C(C)C)C(C)C | Tyrosine-protein kinase Fyn, SH3 domain (FYN, Homo sapiens, UniProt P06241) | ligand binding, FTIR spectroscopy, refers to: asymmetric stretch band B |  | pH 7.0, FYN complex, added: 4 mM peptide |  | wavenumber | 2243.6 ± 0.4 cm⁻¹ |
| COc1cc(C)c(Sc2cnc(NC(=O)c3ccc(N4CCN(CCCCCCCNC(=O)COc5cccc6c5C(=O)N(C5CCC(=O)NC5=O)C6=O)CC4)cc3)s2)cc1C(=O)N1CCN(C(C)=O)CC1 (stereo not drawn) | ITK (Homo sapiens, UniProt Q08881) | degrader | HuT78 xenograft, NSG mouse, tumour | intraperitoneal, 50 mg/kg every 8 h |  | degradation | 99.2% |
| CC1(C)CC2(C)OC(=O)NC2(C)c2ccccc21 (stereo not drawn) | Transducin-like enhancer protein 4 (TLE4, Homo sapiens, UniProt Q04727) | binding, affinity selection mass spectrometry |  |  | reference: other proteins in batch | fold enrichment | 1.31 |
| O=C(COP(=O)(O)O)[C@@H](O)[C@H](O)[C@H](O)COP(=O)(O)O | Germinal-center associated nuclear protein, 80 kDa isoform (MCM3AP, Homo sapiens, UniProt O60318) | thermal proteome profiling, refers to: MCM3AP | HepG2 cell lysate | concentration not given, 57 over 37 °C, mean | reference: compound over control | thermal stability ratio | 3.79 |
| CNCc1ccc(-c2[nH]c3cc(F)cc4c3c2CCNC4=O)cc1 |  |  | human patients | oral, 600 mg twice daily, grade 5 |  | dizziness incidence | 0% |
| CC[C@]1(O)C[C@H]2CN(CCc3c([nH]c4ccccc34)[C@@](C(=O)OC)(c3cc4c(cc3OC)N(C=O)[C@H]3[C@@](O)(C(=O)OC)[C@H](OC(C)=O)[C@]5(CC)C=CCN6CC[C@]43[C@@H]65)C2)C1 | Genome polyprotein NS3 helicase domain | DNA binding, inhibitor | hepatitis C virus | 100 µM, added: Cy5-dT15 DNA |  | inhibition | 2% |
| CC(C)C[C@H](NC(=O)C[C@H](O)[C@H](CC(C)C)NC(=O)[C@H](Cc1c[nH]cn1)NC(=O)CNC(=O)[C@@H](NC(=O)[C@H](C)NC(=O)[C@H](Cc1c[nH]c2ccccc12)NC(=O)[C@H](CCC(N)=O)NC(=O)[C@@H](Cc1ccccc1)NC(=O)COCCOCCNC(=O)CCC(C(=O)O)N1CCN(CC(=O)O)CCN(CC(=O)O)CCN(CC(=O)O)CC1)C(C)C)C(N)=O (stereo partly drawn) [lutetium-177 labelled] |  |  | female BALB/c nu/nu mice, stomach | intravenous, 100 pmol, 24 h, added: PA 300 µg |  | tissue uptake | 0.06 ± 0.03 %ID/g |

| Compound | tested on | test | system | setting | scale | measurement | value |
| --- | --- | --- | --- | --- | --- | --- | --- |
| N#Cc1cccc2c1CC[C@H]2NC(=O)c1ccc(CNc2cccc3c2CCCC3)cc1 | WD repeat-containing protein 91 WD40 domain, residues 392–747 | SPR |  | 45 µM |  | binding | 9% and -8% |
| CC(C)[C@H](NC(=O)[C@H](Cc1ccc(O)cc1)NC(=O)[C@H](Cc1ccc(O)cc1)NC(=O)[C@@H]1CCCN1C(=O)[C@H](CCC(=O)O)NC(=O)[C@H](CCC(=O)O)NC(=O)[C@H](Cc1c[nH]c2ccccc12)NC(=O)[C@@H]1CCCN1C(=O)[C@@H](NC(=O)[C@H](CCC(N)=O)NC(=O)c1ccc2c(c1)C(=O)OC21c2ccc(O)cc2Oc2cc(O)ccc21)C(C)C)C(=O)N[C@H](C(=O)N[C@@H](CCCCN)C(=O)N[C@@H](CCCCN)C(=O)N[C@@H](CO)C(=O)N[C@@H](CO)C(=O)NCC(=O)NCC(N)=O)C(C)C |  |  | human, plasma | intravenous infusion, 400 mg, predose 0 min, day 1 |  | total plasma concentration | not detected |
| CCCN1C[C@H](CSC)C[C@@H]2c3cccc4[nH]cc(c34)C[C@H]21 | Glutamate receptor 2 (Homo sapiens, UniProt P42262) | ion current, positive allosteric modulator, SyncroPatch patch clamp | HEK293 | 3 µM |  | potentiation | 89% |
| Cc1ccc(S(=O)(=O)N(CC#N)C(=O)Cc2cc(C(F)(F)F)cc(C(F)(F)F)c2)cc1 |  | reaction with N-acetyl-lysine, HPLC-MS |  | pH 10.2, added: N-α-acetyl-lysine |  | pseudo-first-order rate constant | 2.6 h⁻¹ |
| Cc1nc(CSc2nc(SCc3ccc(C(C)C)cc3)nc(=O)[nH]2)cs1 | DNA topoisomerase 2-alpha, ATPase domain (TOP2A, Homo sapiens, UniProt P11388) | 1H STD NMR, refers to: H2' and H4' protons |  | protein to ligand ratio 100 |  | STD amplification factor | 1.24 |
| N#CC1CCN(C(=O)c2ccc(SCc3nc4ccccc4[nH]3)cc2)CC1 | WD repeat-containing protein 91 WD40 domain, residues 392–747 | binding, SPR single-concentration screen |  | 45 µM |  | SPR response | -2.7 RU and 0 RU |
| C[C@H](N)C(=O)O | N-alpha-acetyltransferase 80 (NAA80, Homo sapiens, UniProt Q93015) | substrate, DTNB |  | 2 mM, 30 min, 37 °C, added: acetyl-CoA 500 µM |  | product formation | -1.45 µM |
| CCCc1cc(=O)oc2cc(OCc3cc(=O)c(O)co3)ccc12 | PPO3 (Agaricus bisporus, UniProt C7FF04) | secondary structure of tyrosinase, CD spectroscopy |  | molar ratio 1:1 |  | α-Helix content | 33.7% |
| CN1C(=O)C(c2c(-c3ccc(Cl)cc3)[nH]c3c2c(=O)[nH]c(=O)n3C)c2ccccc21 (stereo not drawn) | WD repeat-containing protein 91 (Homo sapiens, UniProt A4D1P6) | binding, SPR steady state |  | 3.75 µM |  | SPR response | 22.2 RU |
| CC(=O)N[C@@H](CS)C(=O)O | Genome polyprotein NS3 helicase domain | DNA binding, inhibitor | hepatitis C virus | 100 µM, added: Cy5-dT15 DNA |  | inhibition | 0% |
| COc1ccc([C@H]2N(c3ccc(Cl)c(Cl)c3)C(=O)[C@@H]3CCCN32)c(OC)c1OC (racemic) | DAPK1 (Homo sapiens, UniProt P53355) | enzyme activity, inhibitor, ADP-Glo |  | 100 µM |  | kinase activity | no effect |
| Cn1cc(-c2ccc(-c3cncc(Cl)c3N3CCC4(CCNC4=O)CC3)cc2)cn1 | COLO 205 | gene expression, microarray, refers to: HIST1H4F mRNA |  | concentration not given, 6 h | reference: untreated cells | log2 fold change | -2.65 |
| Nc1ncnc2c1ncn2[C@@H]1O[C@H](COP(=O)(O)CP(=O)(O)OP(=O)(O)O)[C@@H](O)[C@H]1O | P2X purinoceptor 1 (P2RX1, Homo sapiens, UniProt P51575, R139A) | saturation binding | HEK293 | 79 nM |  | specific binding | 4190 CCPM and 2900 CCPM |
| COc1ccc(-c2coc3cc(O)ccc3c2=O)cc1O | ESR1 | array formation | PRL-HeLa |  | reference: EC50 ERβ over EC50 ERα | selectivity ratio | 0.541 |
| CC(=O)N(C(=O)c1cc(C(F)(F)F)cc(C(F)(F)F)c1)c1ccccc1 |  | reaction with N-acetyl-lysine, HPLC-MS |  | pH 10.2, added: N-α-acetyl-lysine |  | pseudo-first-order rate constant | 2.6 h⁻¹ |
| O=C1CC[C@H](N2Cc3c(ccc4c3OCC43CCN(C[C@@H]4CCC5(CCN(c6ccc([C@@H]7c8ccc(O)cc8CC[C@@H]7c7ccccc7)cc6)CC5)OC4)CC3)C2=O)C(=O)N1 | ESR1 |  | mouse, MCF7 xenograft | oral, 30 mg/kg daily for 3 days, 24 h | reference: vehicle | ER level reduction | 71 to 72% |
| O=C1c2ccccc2C(=O)c2c(NCCc3ccc(O)cc3)ccc(NCCc3ccc(O)cc3)c21 | Genome polyprotein NS3 helicase domain | DNA binding, inhibitor | hepatitis C virus | 100 µM, added: Cy5-dT15 DNA |  | inhibition | 13% |
| c1csc(CNc2cc[nH]n2)c1 | human peripheral blood lymphocytes (female) |  |  | 1840 µg/mL, 4 h, initial, added: with S9 |  | cells with structural aberrations | 1% |

For quick reference, copied from above:
| Compound | tested on | test | system | setting | scale | measurement | value |
| --- | --- | --- | --- | --- | --- | --- | --- |
| Nc1ncnc2c1ncn2[C@@H]1O[C@H](COP(=O)(O)CP(=O)(O)OP(=O)(O)O)[C@@H](O)[C@H]1O | P2X purinoceptor 1 (P2RX1, Homo sapiens, UniProt P51575, R139A) | saturation binding | HEK293 | 79 nM |  | specific binding | 4190 CCPM and 2900 CCPM |
| COc1ccc(-c2coc3cc(O)ccc3c2=O)cc1O | ESR1 | array formation | PRL-HeLa |  | reference: EC50 ERβ over EC50 ERα | selectivity ratio | 0.541 |
| CC(=O)N(C(=O)c1cc(C(F)(F)F)cc(C(F)(F)F)c1)c1ccccc1 |  | reaction with N-acetyl-lysine, HPLC-MS |  | pH 10.2, added: N-α-acetyl-lysine |  | pseudo-first-order rate constant | 2.6 h⁻¹ |
